Results of several laboratories.
Numbered parts are unrelated; each lists some results of a single study.

Block 1
Target: Max dimerization protein 1, bHLH-zipper, MAX partner unstated (MXD1, Homo sapiens, UniProt Q05195, residues 56-136)
Technique: protein-binding microarray
Molecule type: double-stranded DNA, one strand shown
Medium: in vitro
Concentration: not given
Setting: k-mer, scored over probes, only values ≥0.25
Direction: higher = stronger binding
Residues (chain): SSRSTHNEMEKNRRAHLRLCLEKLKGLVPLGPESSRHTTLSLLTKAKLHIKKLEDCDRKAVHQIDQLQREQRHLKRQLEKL
Strand	E-score
ATGTGTGA	0.257
ATGCGCTG	0.291
ACCATGTG	0.472
CATGCGAG	0.365
TCACACGA	0.267
ACGGGGGC	0.318
AGGCGGGG	0.39
ATCGCGTG	0.393
ATGTTGCA	0.266
CACACACG	0.32
CCCTCGCA	0.261
AATCACAT	0.279
ACGCGGGG	0.35
CATGGGGA	0.373
GCGTGAGC	0.261
CCCGCCCA	0.401
CCATGCAA	0.331
AAGCATGT	0.41
GCATGTCC	0.406
GTGTGCGA	0.281
CGTGGCTA	0.295
ATACCACG	0.311
ACGCGCAT	0.321
ATGTGCTG	0.288
AGGACATG	0.272

Block 2
Target: Phosphate system positive regulatory protein PHO4, full length, GST-tagged (PHO4, Saccharomyces cerevisiae, UniProt P07270, residues 1-312)
Technique: competition protein-binding microarray
Molecule type: double-stranded DNA, one strand shown
Medium: in vitro
Concentration: 2 µM
Setting: whole 60-bp probe, lowest competitor level
Added: Cbf1 competitor, 0.05 µM
Direction: higher = stronger binding
Shared flanks, not repeated: … GTCTTGATTCGCTTGACGCTGCTG
Target sequence (chain): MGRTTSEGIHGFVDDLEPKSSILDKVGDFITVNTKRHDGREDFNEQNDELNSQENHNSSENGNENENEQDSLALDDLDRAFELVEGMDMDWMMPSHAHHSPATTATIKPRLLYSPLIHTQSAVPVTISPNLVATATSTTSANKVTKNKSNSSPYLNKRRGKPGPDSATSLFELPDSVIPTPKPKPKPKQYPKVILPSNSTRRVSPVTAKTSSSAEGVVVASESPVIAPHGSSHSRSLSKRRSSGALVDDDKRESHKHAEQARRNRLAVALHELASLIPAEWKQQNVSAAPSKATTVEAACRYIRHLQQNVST
Strand	fluorescence intensity [a.u.]
GCCAAATCTGCCAGCTTCGTGATGGACATCAACAGA	4020
TGCGCAACAACTTTTCACGTGCCGTTATGTCTAGAA	14400
AAACTGCTGTCATAACGCGTGGTGATGTGGTTTTGC	8360
CCATTACCCGCAAAGCACGTGAGGAAAAAATCAATT	16100
CTAACGAAGGTTTTTCACGTGGGCTACAAGCCAAGT	14000
CATACCCAACCTTGCAAAGTGGGTGAAGATATTTGT	3320
AAAGCGGTAATTTGAAAGGTGGGTGCAGATATCTAT	4270
ATGATGTTGCATTTGCACGTGTTTTGTTGTACCTCT	16900
CGTCCTAGTGATTGTAGGGTGGGTGCCATGAGGAAG	6970
CGGGGTTAAGTTTGCTATGTGGGTGGCTTGCAGCAG	5120
CGGGGTTAAGTTTGTAATGTGGGTGGCTTGCAGCAG	5330
AAAGCGGTAATTTGTGACGTGGGTGCAGATATCTAT	6070
CGATAGGTATAGGATCAGGCTTCACACTTAGTGTTT	3160
CGGGGTTAAGTTTGCCGAGTGGGTGGCTTGCAGCAG	4710
TTACTTTTAATCGATGACATGATAAGTTTCTTTTGA	3810
CTTTCCCGATCTTGGGTCGTGGGTGTAGCACATTTG	9420

Block 3
Target: RNA binding protein fox-1 homolog 2, RRM domain, GST-SBP tag (RBFOX2, Homo sapiens, UniProt O43251-10, residues 100-194)
Technique: RNA Bind-n-Seq
Molecule type: RNA
Medium: in vitro
Concentration: 365 nM
Setting: natural RNA segment, single round, ends assumed
Baseline: no-protein control
Direction: higher = stronger binding
Shared flanks, not repeated: GGGAGUUCUACAGUCCGACGAUC … UGGAAUUCUCGGGUGCCAA
Residues (chain): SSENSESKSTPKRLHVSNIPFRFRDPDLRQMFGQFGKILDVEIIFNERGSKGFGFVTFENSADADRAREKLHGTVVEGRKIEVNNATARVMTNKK
Strand	RBNS enrichment (R)
CAGGCUUUCUGCCUUGCCAUGAGGAGGAGGUGUAGACUUGUGAGUGCUCUCUCCGCUCUGAGUGGCCCUCGGGGAACCACCUGCUUUCCAUCUGUGGGGUGGGGCGCUCG	0.399
AGAGGUUUAUGCUGAGGGGGGGUGACUUUUUAGAAACGUAGCUUCUUGGCGUUUUGCAACCCAUGCUGGCCUCCCUCCUGCAGAUGGCAUAGGAGUCCGUCUGUCUUUGG	0.399
UCCUAACACACAUUCAGAGAAAGGAUAGACUUGGCAUCUCUUGGGUAGGAGUCAGGGCCCAUCCAGACCAGUCACCAUCCAGCCAUGCACUGUCAUCAUCACCCAUAAUG	0.386
GUCCUAGUGAACCUCACCCCGAGGCCCUGCAUGGGCCAGCCCCUCCAUCUGUACUUGGUCCAACUGCAACUCAUCAUCGGUGACUGGUUAUCACACCAUCGCUGGCCCCU	0.769
UGUGACUCGAGAUUGCAGUUGCAACUUGGCAGCUUUUUUCUACUGGACAGGAAGAUGGCAGAAGCUACGCUAUUGUCAUAGCAAAAGAGCUUUCUAUUUGGCACAUACCA	0.429
GAAAGUUUACAACCUGUUCUGAAACUAUUUGUCUUUUCACUGGUUGUAAGUGUACCCCAAUCUCAGGGAGUAUAUCUGUAGUGCCACAGGCAAAAGAUCCACUCCUUCCC	0.326
GCGACUCCAAAGCUCUAGGCCAGAUGUUACAGUUGUUCGCAGCAGGCUCGAUUCUGCCCUCUCUUUUUAACCAUCUCCCUUGUAGAUGAUCCGGGCCACUAGAGAUUAGC	0.546
ACAUCUUUUAAAUUAAGCCACUGUGCUGCCUUAGAUUCCGUGGGUCAUGAGCCAUGAGUCCUGGGACAUCUGAGGAUUGGGAUUCUUUGUUCACCCCGCAGAUAGUUAAU	0.384
AGAAGUAUGUGUGCGUGUGUGUGUGCGUAUGCGUGUGAGACAGGGCCGCCGUGGGUGUGCGUGUGUGCGACUCAGAAUGUGGGUGGUGGCGCCCUCAGAGACCCUGGCAU	3.06
AGAAGGUUUCUCUGAGUCACUCACCAGGCCCUACAAGUCCGCUUUCUUGCAGGCUGCCUCUUUUAUAUUGGGUCUCUUGGCCCAACUGCUUCCUUCUUGUUAAUAAGGAG	0.258
AUGACAUGUGGAGAUGGGACUUAGUGUGUGAGGCAUAGGGUCAUUGGAGAUUCUUCAGACUCGGGGGAGACUGAAUUGGAUGCCUCUCUCAUCCCAGCACACUUCUAAUA	0.857
UCUCCAUGUGUGAAGUAGCUUCCUCCCUCAGCCUGCAAGGGUCCGAUUUGCCAUCGAAAGACGACCUCUACUUUUUUCUUUUGUAUUUUGAUAAACACUGAAGAAGCUGG	0.571

Block 4
Target: RING finger protein unkempt homolog, zinc fingers 1-6, GST-SBP tag (UNK, Homo sapiens, UniProt Q9C0B0, residues 30-357)
Technique: RNA Bind-n-Seq
Molecule type: RNA
Medium: in vitro
Concentration: not given
Setting: RNA with constant flanks, human-mouse chimeric sites, ends assumed
Baseline: input RNA pool
Direction: higher = stronger binding
Shared flanks, not repeated: GGGAGUUCUACAGUCCGACGAUC … CAACAGAGGAUUGAGCAUCA
Target sequence (chain): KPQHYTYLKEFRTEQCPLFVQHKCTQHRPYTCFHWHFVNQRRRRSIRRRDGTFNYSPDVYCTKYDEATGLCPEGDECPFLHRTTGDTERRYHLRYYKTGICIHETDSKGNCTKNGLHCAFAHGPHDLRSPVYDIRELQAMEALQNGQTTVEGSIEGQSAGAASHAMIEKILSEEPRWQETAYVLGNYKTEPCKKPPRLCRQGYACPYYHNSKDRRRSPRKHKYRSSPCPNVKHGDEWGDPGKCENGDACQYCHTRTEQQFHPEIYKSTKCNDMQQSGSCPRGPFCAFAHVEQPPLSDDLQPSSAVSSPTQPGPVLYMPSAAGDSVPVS
Strand	bound/input enrichment [ratio]
UAAAUCCAUUUGUAAGCCUUCGCUCAUAAAGUUUUAAAUUCUGGACCAAUAGUGUUUGUUUCCUGAUUAUUGUAUCCAAUACUUUGCCUAGUAUGUAACUCACUCUUACUGAUAAUAAAA	1.55
UCCCAAAUUAUAAGGCAAGAAGGAGCCUUGAGACAAACACUCCACACACAGGGAAGGCGAUAACAUUGUACAUUGGUUUACAUUUUUUCCCCCUGUGGAUUUUUCUAGAGGUCAUAGUGC	0.397
UGUAGUUGAUCCCCUGCUCAUUUUUCUCUUUUCUUUCUUUCCUUUAGGAAAAGCCUAAAGAUUAGGUUGUAAGAAAAACAGAAGCCAUGUUUCGAAGACCUGUGUUACAGGUAUUUCGUC	0.053
GGGUGGGUGGUCAUUGCCGUUUGAGCUGCUGAUUUUCAUGAGUCGCCCAUUCAGAACUCGUGUAGGGUUGACAAUGUGGGGGGGUGGGGGAUCCAGCUUAUUCUUUUAUUUUCAAGUCCA	0.623
UCAGUCUUUUUGUACAGCUUUGUAAAUUCUUAACAUUUUUAUAUUGCACAUUUUAUGUUGUUUGGGUAAUUUGGUUCAUUAAGUACAUAGCUAAGGUAAUGAACAUCUUUUUCAGUAAUU	1.05
AAAGAGAAACUAAAGCAACUAAUAGAGAAGAGGAUUGGGCAAAGAGAUUUCAUAGAGAAACUAGGAUUUAUUAGCAAACAUGAGUUAUAUUCCAGAGCGUCUCAGAAAACCCCAGCCAAC	3.25
CAGCCUCAGAGCCCUGACUUCCUGGAUAUUACCAACCCCAAAGCCGUAUUAGAAAAUGCAUUGAGAAACUUCGCCUGUCUGACGACUGGAGAUGUGAUUGCUAUCAACUACAAUGAGAAG	0.536
UUAUCCAAGACUCAACGAAAGACUCCAACCGUUAUUCAUAAACAUUAUCAAAUUCAUCGCAUUAGACAUUUUUAUAUGAGAAAAGUCAAAUUUACUCAACAGAAUUACCAUGACAGACUG	23
GCCACCAGAUCCCAGAAACAUGACCCUUGCUGCCUACAAAGAGAAGAUGAAGGAGCUCCCGCUGGUGUCUCUGUUCUGCUCCUGCUUCUUGUCUGAUCCCCUGAAUAAGUCGUCCUACAA	0.348
AUAGAUGAAAUUGAUGUGGACCAGGAAGGAAUUGCAGAAAUGAUCCUGGAUGAAAAUGCUAUUGCUCAGGUCCCACGCCCUGGCACAUCUUUGAAGCUCCCUGGAACUAACCAAACAGGA	0.293
CUUUUUAAGAAGAUAUGUGAUGGGAUCUUCUAUACCCCUCAAUAUUUAAACCCUUCAGUAAUCAGCCUUUUGAAACAUAUGCUGCAGGUGGAUCCCAUGAAGAGGGCCGCAAUAAAAGAU	0.265

A few entries again (block 1):
Strand	E-score
ACCATGTG	0.472
CATGCGAG	0.365
TCACACGA	0.267
ACGGGGGC	0.318
AGGCGGGG	0.39
ATCGCGTG	0.393
ATGTTGCA	0.266
CACACACG	0.32
